Experimental data gathered from unrelated publications.
Every numbered part comes from another study and shows a few of its results, in no order. Positions count from the first letter of the parent shown.

Block 1
Target: RING finger protein unkempt homolog, zinc fingers 1-6, GST-SBP tag (UNK, Homo sapiens, UniProt Q9C0B0, residues 30-357)
Technique: RNA Bind-n-Seq
Molecule type: RNA
Matrix: in vitro
Tested at: not given
Setting: RNA with constant flanks, human and mouse sites, ends assumed
Relative to: input RNA pool
Direction: higher = stronger binding
Constant ends, left off below: GGGAGUUCUACAGUCCGACGAUC … CAACAGAGGAUUGAGCAUCA
Residues (chain): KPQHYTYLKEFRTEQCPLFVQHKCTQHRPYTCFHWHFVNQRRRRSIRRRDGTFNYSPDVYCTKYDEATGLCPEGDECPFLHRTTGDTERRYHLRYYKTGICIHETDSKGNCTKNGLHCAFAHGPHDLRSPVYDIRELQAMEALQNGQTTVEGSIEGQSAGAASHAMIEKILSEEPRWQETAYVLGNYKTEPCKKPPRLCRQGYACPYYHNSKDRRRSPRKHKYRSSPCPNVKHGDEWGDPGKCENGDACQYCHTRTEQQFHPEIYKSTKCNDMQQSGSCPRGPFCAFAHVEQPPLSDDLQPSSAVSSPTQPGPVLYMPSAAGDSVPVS
Oligonucleotide	bound/input enrichment [ratio]
CUCAAUACCAUUCCAUUGUUUGUGCAGUUGCUUUAUUCUCCCAUUGAAAAUAUCCAAAGAGUAGCUGCAGGGGUCCUCUGUGAACUUGCUCAGGACAAGGAGGCUGCAGAGGCCAUUGAA	0.425
GGAGGUCAGGUUCCUGACACAAACUACAUAUUUAUGGGUGAUUUUGUAGACAGAGGUUACUAUAGUUUGGAGACCUUCACUUACCUUCUUGCAUUAAAGGCUAAAUGGCCUGAUCGUAUU	0.499
AGAGUCGACACAAUUUUGGAAUUUUCUCAGAAUAUGAAUACGAAAUACUAUGGACUACAAAUUUUGGAAAAUGUGAUAAAAACAAGGUGGAAGAUUCUUCCAAGGAACCAGUGCGAAGGA	0.331
CCAACAAGAGAGUCGGAAUAUCACUCUUCAGAUCUCAGAAUGUUGAGGAUGUCUCCUGACACUGUGCCAAAGGCUCCUAAACAUUUAAAAGCAGGAGACACUUCUAAAGGAGGCAUAGCU	0.0467
GAGGUGGUGCCUAUUCAUCAGCAGGACAUUCCUGUUGAUAAUCCCAUCGAGAGCAAUAAUAUCUUCCUAGUGGCCCCAUUGAUCAUCUGCCACGUGAUUGACAAGCGUAGCCCCCUGUAU	0.139
ACAGUUUUCAAAAGUUCUUAAAGGCAAGAGUGAAUUUCUGUGGAUUUUACUGGUCCCAGCUUUUAGGUUCUUUAAGACACUAACAGGACUACAUAGAGGCUUUUUCAGCAUUACUGUGUC	0.285
CGAUAAUACUUGACCUCUGUGACCAACUAUUGGAUUGAGAAACUGACAAGCCUUGGUUGAUAGCAAGAACCCUUUCAGUUUACAUUGUGACAUUCUGUUGUAAAAAUCAACUAAAAUGCU	0.177
GAACCGAUCAGUGUGAGUAUAUACACUUCUGAUAACUACUCUGAAGAAGUGGGUUCUGGAGACUAUGACUCCAACAAGGAACCCUGCUUCCGGGAUGAAAACGUCCAUUUCAAUAGGAUC	0.131
UCUGGUAUUACCCUCACCUGCAUUGGUUUUGUUUUUUGGGGUUUUUGUUGUUUGUUUGUUUUUAGAUUCACAGAACAUGAGAAUCCUUUUUGACAAGCCUUGGAUAGCUGGCUCUCUUCU	0.305
GGGGAACGGGGCUUCGCGGUUCCAACGAUUAAGUUCUGAAGUACUGAUCGAGUUCUGCGUUUCUUCAAUGAGGAACUACAGGCUGAUCUUCUGCCAUAAUCUCAAACAGCCAUAAAUGAC	0.119
AUGAAGGCUCGUUUAAAGGGAGCACAGACAGGUCGAAACCUCCUGAAGAAAAAAUCUGAUGCCUUAACUCUUCGAUUUCGACAGAUCCUAAAGAAGAUAAUAGAGACUAAAAUGUUGAUG	0.335

Block 2
Target: CCNB3, cyclin fold, Cln2 fusion (human)
Technique: yeast growth competition, sequencing
Matrix: yeast
Setting: weak parent motif
Relative to: not given
Direction: higher = stronger binding
Starting sequence: RB1 docking peptide (human); PKPLKKLRFDIEG; partner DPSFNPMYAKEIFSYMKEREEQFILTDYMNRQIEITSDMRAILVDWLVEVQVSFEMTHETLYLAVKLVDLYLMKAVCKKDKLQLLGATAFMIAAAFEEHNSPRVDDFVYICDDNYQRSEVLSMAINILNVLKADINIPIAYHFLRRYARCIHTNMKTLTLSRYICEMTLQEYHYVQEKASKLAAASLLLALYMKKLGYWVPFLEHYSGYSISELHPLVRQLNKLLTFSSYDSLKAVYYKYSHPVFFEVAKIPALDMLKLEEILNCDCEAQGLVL
Change	normalised enrichment score
F9E	-0.25
I11E	0.335
P1H	0.0997
F9K	0.209
F9R	-0.133
K6I	0.476
E12A	-0.161
L7H	0.0458
F9V	0.604
P3K	-0.134
P3Q	0.124
P3V	-0.511
P1S	-0.287
E12V	0.0109
E12H	-0.335
R8P	0.398
K2L	0.376
K6D	0.293
P1Q	0.202
K6W	0.0344
K5A	0.177
R8D	0.319
P1L	-0.21
F9D	0.0592
K5E	0.0874

Block 3
Target: RNA binding protein fox-1 homolog 2, RRM domain, GST-SBP tag (RBFOX2, Homo sapiens, UniProt O43251-10, residues 100-194)
Technique: RNA Bind-n-Seq
Molecule type: RNA
Matrix: in vitro
Tested at: 365 nM
Setting: natural RNA segment, single round, ends assumed
Relative to: no-protein control
Direction: higher = stronger binding
Constant ends, left off below: GGGAGUUCUACAGUCCGACGAUC … UGGAAUUCUCGGGUGCCAA
Residues (chain): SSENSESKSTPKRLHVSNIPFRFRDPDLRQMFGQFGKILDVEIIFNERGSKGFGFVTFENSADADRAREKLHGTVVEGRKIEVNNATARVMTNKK
Oligonucleotide	RBNS enrichment (R)
UUUAAGAUAUAGUUAAGAUAUAAAAGAAUGGCAGAAUGCGAUUGAUUCCUUCCUGUCGAGUUAAAUCUAAUCAGAUAUGAUGGAUGCCGGUAGUCCCAGCACUUGGAGAA	0.355
GAAAGUUGGAAGCUCAUAUCCCCAUAGUCGCAGAUCACGAUGUAAAUCACUGUAAUUAAAAUUGGUGUUAAAUCCUUUGGGUUUUCCACUGCCUUAAAAUGAUACUUAUU	0.413
GCACUGCCCAGGCCAGAGGGUAGAGCACAGGGGUUUCCCCAUACUACCUCCCCUCCCCAGGACACUCCCAGGCUUGGGUUUUUUCUAUAGGUUUGGCGGGGGGCCACAGG	0.689
GGUUUAAUAUUUGCAUUUUCGUGCUUUUAUUUUCUCCUUCCAUUCAUAAGUAUAUACUUGAAAGUACAUCUGUAGCCUAUGAUUUGAGUCUCUUGAAGUUCUAGGAAGAG	0.317
UGCAGGCCUGCUGUCCUCACUCCAGAAUGAGUGCUGGCUCUGCCUCUGGCUGCAGAGUUGAGGUUGGACUCUGGAGUGGAUGGUGGAGAUGAGGCACAGUGGAGAGAAAG	1.61
GUUUUGUUUAGAGCAGUUAACAUCUGAAGUGUCUAAUGCAUUAACUUUUGUAAGGUACUGAAUACUUAAUAUGUGGGAAACCCUUUUGCGUGGUCCUUAGGCUUACAAUG	0.308
CACAGAAAGGAUGUAGAAGGGUGCCAUCUGUGUGCCUUCUCUGACAUCUCAAGGGACUUGCCCAGGACAUGGAACUGUGGCCUCCUUGACAAACCUAUCUCUUGGACUCA	0.479
CUGUUAGUGUGAUCUGUGGAGAAUGUACAGAACUUAACUACAUCAAUAAACACUUUAACGUCCCCUGGCACCUUGUGUUCCUGACCAUGGCUUCGAUCUAUGCUGAUGGA	1.24
AGCCUCUCCCACCUAACCUCUGCAUCCCCCAGCCUCAUGUCCUGCCCCAUCCCUAUCCUGCCUGAUCCCUGGAUCUCCCUCAGAUCCCCUCUUCUCAGACAGCGCCAGGC	2.17
CCCCGGAAUGAGCCGCCCCACCCACCCCAAGGCUGGAGCCGCUGCACCCUGCUGUCCCUCUCCAGGCCUUGGCAAUGACGAUCCCCCAAAGAGCCCGUCUGCACCCCAGA	0.449
GGUUUUGUUUUGUUUUGUUUUGUUUUUUGUUUAAGUCGAGAUAUAAAAACUGAACACGAUAACACUUACUCUUAAAUCAAGCAUCAACACUUUUUCCCUGUUAGAAUUCU	0.636
GGUGACAAAAGCCACCCUGAGUGAUACUAGGCUGCCUGAACCUUUGGGUGGGAGUGGAAGUCCCUAGCACACAGCUUUGUGGAGACCUCCACUCUCACUCUUGGUGCAAC	0.279

Block 4
Target: Prothrombin, mature alpha-thrombin (F2, Homo sapiens, UniProt P00734)
Technique: aptamer microarray, sandwich
Molecule type: DNA with 2'F-ANA
Matrix: in vitro
Tested at: 200 nM
Setting: whole 15-mer aptamer, many near background
Added: Cy3 exosite-II aptamer, 400 nM
Direction: higher = stronger binding
Oligonucleotide: GGTTGGTGTGGTTGG
Modification	mean fluorescence intensity [a.u.]
2'F-ANA at 1 2 6 7 8 10 12 13	71.3
2'F-ANA at 1 3 4 7 8 10 12 14	54.5
2'F-ANA at 1 2 3 5 6 8 10 11 12	50.2
2'F-ANA at 3 4 7 9 10 11 14 15	223
2'F-ANA at 2 5 6 10 11 12 14	62.7
2'F-ANA at 3 4 6 7 8 9 12 13 14	267
2'F-ANA at 1 3 6 7 8 10 13 15	78.3
2'F-ANA at 2 3 4 6 8 10 11 13 14 15	123
2'F-ANA at 1 2 3 4 5 7 9 11 13 15	50.2
2'F-ANA at 2 3 7 8 9 10 11 14 15	269
2'F-ANA at 1 3 4 5 6 7 9 10 15	52.1
2'F-ANA at 1 3 5 6 9 10 11 12 13 14	45.1
2'F-ANA at 3 5 10 11	89.1
2'F-ANA at 1 2 3 5 7 8 15	70.9
2'F-ANA at 1 5 6 10 12 13 14 15	46.5
2'F-ANA at 1 7 9 10 11 13 15	52.8
2'F-ANA at 3 4 7 8 14 15	382
2'F-ANA at 2 4 5 7 8 11 12 15	160
2'F-ANA at 1 5 8 9 11 13	98.1
2'F-ANA at 2 3 4 6 10 12 13	243
2'F-ANA at 1 2 3 4 5 6 7 10 13 14 15	77.6
2'F-ANA at 1 2 4 6 10 12 13 14	44.6
2'F-ANA at 3 4 6 8 9 11 13 14 15	278
2'F-ANA at 1 2 4 5 6 8 9 10 12 13	46.7
2'F-ANA at 2 10 11 12 15	167

Mixed results
Substance	target	assay	test system	conditions	how to read	endpoint	value
PhoQ, residues 284 288 289 292 302 303 SCKMEA	PhoP, residues 12 14 15 18 19 NHFRA (Escherichia coli, UniProt P23836)	Sort-seq, item: YFP reporter	E. coli	PhoQ-PhoP variant library, added: 10 µM Mg2+	relative to: high Mg2+ state, higher = stronger signaling	fold induction	2.75

A few entries again (block 2):
Change	normalised enrichment score
P1Q	0.202
K5A	0.177
R8D	0.319
F9D	0.0592
K2L	0.376
